Results pooled from the literature.
Numbered parts are unrelated; each lists some results of a single study. Values joined by “and” are separate records of one study, mostly repeats; a detail may differ.
UniProt P49674, sequence (whole entry, looked up): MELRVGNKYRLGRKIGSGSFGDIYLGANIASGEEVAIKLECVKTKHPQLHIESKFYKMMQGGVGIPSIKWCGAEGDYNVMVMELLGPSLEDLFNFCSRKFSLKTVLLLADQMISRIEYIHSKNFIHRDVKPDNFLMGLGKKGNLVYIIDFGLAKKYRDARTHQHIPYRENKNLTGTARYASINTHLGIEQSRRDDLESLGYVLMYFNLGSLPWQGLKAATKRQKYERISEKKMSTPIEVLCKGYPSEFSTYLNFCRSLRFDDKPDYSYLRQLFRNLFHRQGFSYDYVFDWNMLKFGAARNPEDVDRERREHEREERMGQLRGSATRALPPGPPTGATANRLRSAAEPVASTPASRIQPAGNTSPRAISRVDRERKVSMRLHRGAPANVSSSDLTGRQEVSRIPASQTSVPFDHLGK
UniProt P50613, sequence (whole entry, looked up): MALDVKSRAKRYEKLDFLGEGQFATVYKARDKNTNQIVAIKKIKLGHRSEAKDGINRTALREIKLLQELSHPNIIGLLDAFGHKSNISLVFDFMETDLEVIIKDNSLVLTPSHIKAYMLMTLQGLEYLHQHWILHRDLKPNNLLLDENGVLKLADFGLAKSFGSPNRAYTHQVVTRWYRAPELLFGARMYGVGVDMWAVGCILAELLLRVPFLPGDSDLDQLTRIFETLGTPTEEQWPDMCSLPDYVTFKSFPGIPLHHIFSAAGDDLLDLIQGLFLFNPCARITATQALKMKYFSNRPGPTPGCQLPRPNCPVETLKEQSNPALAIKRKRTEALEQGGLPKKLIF
UniProt O15197, sequence (whole entry, looked up): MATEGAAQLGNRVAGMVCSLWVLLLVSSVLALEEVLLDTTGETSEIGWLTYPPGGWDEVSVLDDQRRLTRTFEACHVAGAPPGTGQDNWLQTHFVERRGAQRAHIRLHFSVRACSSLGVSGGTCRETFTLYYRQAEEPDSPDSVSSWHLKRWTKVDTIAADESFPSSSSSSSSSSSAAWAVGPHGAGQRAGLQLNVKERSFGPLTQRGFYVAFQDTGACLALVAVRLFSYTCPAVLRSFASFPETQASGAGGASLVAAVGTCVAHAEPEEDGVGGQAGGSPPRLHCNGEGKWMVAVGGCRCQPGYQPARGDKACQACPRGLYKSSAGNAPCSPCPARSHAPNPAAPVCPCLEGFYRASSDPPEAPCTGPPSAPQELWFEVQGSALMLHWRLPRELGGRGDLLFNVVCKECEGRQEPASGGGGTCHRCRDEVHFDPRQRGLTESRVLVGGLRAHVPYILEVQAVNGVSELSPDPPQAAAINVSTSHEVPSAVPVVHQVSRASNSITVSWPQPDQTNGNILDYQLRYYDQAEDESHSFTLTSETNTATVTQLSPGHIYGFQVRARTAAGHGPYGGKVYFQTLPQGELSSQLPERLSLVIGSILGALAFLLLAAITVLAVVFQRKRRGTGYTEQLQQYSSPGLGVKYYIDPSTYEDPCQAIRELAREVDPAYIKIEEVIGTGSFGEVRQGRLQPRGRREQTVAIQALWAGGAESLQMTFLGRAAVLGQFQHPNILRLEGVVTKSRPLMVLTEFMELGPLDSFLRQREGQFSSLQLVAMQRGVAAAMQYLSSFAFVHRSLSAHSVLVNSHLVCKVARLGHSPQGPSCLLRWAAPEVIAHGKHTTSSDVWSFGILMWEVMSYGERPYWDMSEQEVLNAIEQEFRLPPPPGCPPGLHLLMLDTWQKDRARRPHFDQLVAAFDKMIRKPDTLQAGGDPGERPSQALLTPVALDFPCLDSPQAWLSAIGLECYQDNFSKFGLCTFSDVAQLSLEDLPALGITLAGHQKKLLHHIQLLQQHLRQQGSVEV
UniProt Q9UK32, sequence (whole entry, looked up): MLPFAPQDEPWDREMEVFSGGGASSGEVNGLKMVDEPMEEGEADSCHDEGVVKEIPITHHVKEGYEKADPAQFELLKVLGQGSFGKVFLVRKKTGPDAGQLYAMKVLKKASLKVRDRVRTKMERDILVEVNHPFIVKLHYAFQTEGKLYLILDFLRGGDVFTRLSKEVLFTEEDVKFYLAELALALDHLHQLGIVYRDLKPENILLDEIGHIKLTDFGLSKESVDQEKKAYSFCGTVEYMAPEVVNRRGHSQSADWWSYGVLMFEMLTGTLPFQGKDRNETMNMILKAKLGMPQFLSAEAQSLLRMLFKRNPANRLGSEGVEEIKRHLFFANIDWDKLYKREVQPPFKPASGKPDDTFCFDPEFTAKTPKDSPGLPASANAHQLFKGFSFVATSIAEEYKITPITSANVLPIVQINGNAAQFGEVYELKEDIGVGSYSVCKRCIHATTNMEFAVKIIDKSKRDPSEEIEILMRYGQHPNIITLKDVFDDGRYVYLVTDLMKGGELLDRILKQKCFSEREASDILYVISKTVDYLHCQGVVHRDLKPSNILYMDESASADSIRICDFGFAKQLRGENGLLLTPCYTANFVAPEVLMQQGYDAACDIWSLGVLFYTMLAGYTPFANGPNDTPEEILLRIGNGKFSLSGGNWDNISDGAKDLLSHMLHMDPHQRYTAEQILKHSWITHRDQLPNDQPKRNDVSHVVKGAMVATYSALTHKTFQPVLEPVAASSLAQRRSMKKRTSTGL
UniProt O15146, sequence (whole entry, looked up): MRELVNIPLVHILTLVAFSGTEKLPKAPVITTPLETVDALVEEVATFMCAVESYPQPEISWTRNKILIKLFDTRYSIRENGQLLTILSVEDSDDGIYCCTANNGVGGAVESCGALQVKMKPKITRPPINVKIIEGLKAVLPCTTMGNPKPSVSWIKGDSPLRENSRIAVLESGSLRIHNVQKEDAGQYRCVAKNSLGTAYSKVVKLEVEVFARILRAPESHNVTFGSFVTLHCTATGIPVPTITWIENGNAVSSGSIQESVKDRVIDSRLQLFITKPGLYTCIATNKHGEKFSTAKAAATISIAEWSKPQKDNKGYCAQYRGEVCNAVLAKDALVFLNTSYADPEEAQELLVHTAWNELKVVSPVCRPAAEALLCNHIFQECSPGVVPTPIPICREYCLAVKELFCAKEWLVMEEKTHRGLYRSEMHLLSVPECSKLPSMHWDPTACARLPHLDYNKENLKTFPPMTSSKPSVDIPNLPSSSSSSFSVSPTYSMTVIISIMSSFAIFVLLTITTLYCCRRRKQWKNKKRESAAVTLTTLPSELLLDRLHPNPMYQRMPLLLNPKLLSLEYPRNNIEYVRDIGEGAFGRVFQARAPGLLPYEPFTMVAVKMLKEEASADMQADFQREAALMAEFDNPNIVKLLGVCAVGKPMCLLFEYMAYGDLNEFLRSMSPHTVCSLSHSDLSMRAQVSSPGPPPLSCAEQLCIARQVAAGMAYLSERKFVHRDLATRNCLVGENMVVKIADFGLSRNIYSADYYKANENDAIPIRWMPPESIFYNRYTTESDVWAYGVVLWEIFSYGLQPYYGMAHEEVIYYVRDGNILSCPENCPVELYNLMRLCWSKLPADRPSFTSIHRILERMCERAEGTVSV
UniProt Q9H422, sequence (whole entry, looked up): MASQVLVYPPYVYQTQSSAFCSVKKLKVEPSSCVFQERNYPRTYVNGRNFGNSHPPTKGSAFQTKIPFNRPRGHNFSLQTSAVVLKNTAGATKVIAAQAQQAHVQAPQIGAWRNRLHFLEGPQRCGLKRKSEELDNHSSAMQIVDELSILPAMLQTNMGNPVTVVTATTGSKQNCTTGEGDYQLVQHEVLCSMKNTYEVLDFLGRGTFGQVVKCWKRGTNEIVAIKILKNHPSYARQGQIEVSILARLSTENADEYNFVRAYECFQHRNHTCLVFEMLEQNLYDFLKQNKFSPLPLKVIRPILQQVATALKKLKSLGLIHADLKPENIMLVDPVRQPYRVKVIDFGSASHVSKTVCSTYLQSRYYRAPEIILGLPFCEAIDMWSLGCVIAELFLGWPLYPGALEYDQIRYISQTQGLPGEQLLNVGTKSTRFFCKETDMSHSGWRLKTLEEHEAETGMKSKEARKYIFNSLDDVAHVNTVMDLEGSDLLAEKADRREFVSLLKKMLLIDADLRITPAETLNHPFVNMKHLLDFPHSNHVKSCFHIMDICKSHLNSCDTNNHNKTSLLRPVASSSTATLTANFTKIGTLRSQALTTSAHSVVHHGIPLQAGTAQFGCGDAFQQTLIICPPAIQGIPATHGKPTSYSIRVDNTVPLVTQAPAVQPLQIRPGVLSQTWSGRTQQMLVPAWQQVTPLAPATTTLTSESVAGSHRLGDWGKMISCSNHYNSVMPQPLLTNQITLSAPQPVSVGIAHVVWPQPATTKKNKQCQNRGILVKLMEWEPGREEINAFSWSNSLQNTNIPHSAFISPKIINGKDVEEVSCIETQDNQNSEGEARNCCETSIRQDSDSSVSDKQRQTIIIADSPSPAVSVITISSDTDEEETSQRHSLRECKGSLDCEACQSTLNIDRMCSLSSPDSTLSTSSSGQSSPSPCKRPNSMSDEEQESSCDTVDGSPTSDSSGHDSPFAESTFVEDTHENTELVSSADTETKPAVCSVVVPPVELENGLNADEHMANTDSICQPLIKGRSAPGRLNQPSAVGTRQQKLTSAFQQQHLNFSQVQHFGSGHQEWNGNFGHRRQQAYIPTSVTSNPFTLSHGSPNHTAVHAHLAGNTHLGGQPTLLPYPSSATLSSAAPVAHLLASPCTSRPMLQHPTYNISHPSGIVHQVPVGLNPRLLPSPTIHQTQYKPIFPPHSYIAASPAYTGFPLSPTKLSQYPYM
UniProt P48730, sequence (whole entry, looked up): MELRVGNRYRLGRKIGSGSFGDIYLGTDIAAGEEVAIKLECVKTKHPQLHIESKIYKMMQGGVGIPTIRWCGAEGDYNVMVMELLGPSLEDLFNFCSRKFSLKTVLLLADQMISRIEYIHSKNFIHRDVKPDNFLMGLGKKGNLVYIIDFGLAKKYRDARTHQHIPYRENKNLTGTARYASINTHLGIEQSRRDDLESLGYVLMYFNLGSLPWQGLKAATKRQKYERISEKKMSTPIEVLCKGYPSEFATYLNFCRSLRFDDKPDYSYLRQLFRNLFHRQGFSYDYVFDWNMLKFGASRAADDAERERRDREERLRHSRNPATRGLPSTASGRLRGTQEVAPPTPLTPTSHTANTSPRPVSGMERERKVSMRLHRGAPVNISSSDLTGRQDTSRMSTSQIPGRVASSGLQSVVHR

Set 1 — species: mouse; matrix: EL4 tumour; dose: dose not given
SMILES: CC(=O)N[C@@H](Cc1c[nH]c2ccccc12)C(=O)N[C@@H](CCC(=O)C=[N+]=[N-])C(=O)OC(C)C
The normalized intensity was -0.0372 and 0.052 and -0.0693 and -0.207 and -0.0975 (refers to: guanosine).
For refers to: guanine: normalized intensity read -0.32 and -0.0091 and -0.111 and -0.239 and -0.256 and -0.109.
It gave -0.0936 and 0.0304 and 0.0105 and -0.199 and -0.0161 and 0.042 for normalized intensity (refers to: isocitrate).
refers to: fumarate — normalized intensity: -0.0638 and -0.218 and 0.0005 and -0.0649 and -0.0545 and -0.248.
refers to: nicotinamide — normalized intensity: -0.121 and 0.009 and -0.016 and -0.148 and -0.026 and 0.013.
refers to: tryptophan — normalized intensity: -0.0618 and 0.0473 and 0.11 and 0.047 and 0.0806 and 0.0625.

Set 2 — SMILES: COc1ccc(COc2ccc(Cc3cnc(N)nc3N)cc2OC)cc1; read-out: enzyme activity; action: inhibitor; tested at: 0.5 µM; baseline: control
PAK1 (Homo sapiens, UniProt Q13153) — remaining activity: 93.4%.
For CSNK1D (Homo sapiens, UniProt P48730): remaining activity read 98.5%.
For CLK1 (Homo sapiens, UniProt P49759): remaining activity read 103%.
The remaining activity was 123% (IGF1R (Homo sapiens, UniProt P08069)).
RPS6KA3 (Homo sapiens, UniProt P51812) — remaining activity: 105%.
It gave 97.1% for remaining activity (CSNK1E (Homo sapiens, UniProt P49674)).
It gave 110% for remaining activity (TYRO3 (Homo sapiens, UniProt Q06418)).
For PAK6 (Homo sapiens, UniProt Q9NQU5): remaining activity read 94.9%.
MUSK (Homo sapiens, UniProt O15146) — remaining activity: 102%.
JAK1 (Homo sapiens, UniProt P23458) — remaining activity: 105%.
The remaining activity was 94.3% (CLK2 (Homo sapiens, UniProt P49760)).
PRKCZ (Homo sapiens, UniProt Q05513) — remaining activity: 93.4%.
SGK2 (Homo sapiens, UniProt Q9HBY8) — remaining activity: 97.5%.
It gave 115% for remaining activity (CAMKK1 (Homo sapiens, UniProt Q8N5S9)).
TEC (Homo sapiens, UniProt P42680) — remaining activity: 114%.
The remaining activity was 98% (PRKCQ (Homo sapiens, UniProt Q04759)).
For SIK2 (Homo sapiens, UniProt Q9H0K1): remaining activity read 98.6%.
The remaining activity was 97.4% (MAP3K20 (Homo sapiens, UniProt Q9NYL2)).
The remaining activity was 99.7% (FLT1 (Homo sapiens, UniProt P17948)).
It gave 103% for remaining activity (CAMK1 (Homo sapiens, UniProt Q14012)).

Set 3 — read-out: cell-free assay; method: competition with immobilised ligand; tested at: 1 µM
Structure (SMILES): C[C@@H](c1cccc(C#N)c1)n1cc(Cl)cc(C(N)=O)c1=N
For MAP3K2 (Homo sapiens, UniProt Q9Y2U5): remaining binding read 100%.
Tyrosine-protein kinase ABL1, phosphorylated (ABL1, Homo sapiens, UniProt P00519, H396P) — remaining binding: 76%.
It gave 98% for remaining binding (MYLK3 (Homo sapiens, UniProt Q32MK0)).
The remaining binding was 82% (Ribosomal protein S6 kinase alpha-6, N-terminal kinase domain (RPS6KA6, Homo sapiens, UniProt Q9UK32)).
It gave 100% for remaining binding (CHEK2 (Homo sapiens, UniProt O96017)).
The remaining binding was 90% (EPHA8 (Homo sapiens, UniProt P29322)).
The remaining binding was 100% (SNRK (Homo sapiens, UniProt Q9NRH2)).
The remaining binding was 85% (Tyrosine-protein kinase ABL1, non-phosphorylated (ABL1, Homo sapiens, UniProt P00519, T315I)).
CDK7 (Homo sapiens, UniProt P50613) — remaining binding: 81%.
EGFR (Homo sapiens, UniProt P00533, A750P/del747-749) — remaining binding: 88%.
It gave 100% for remaining binding (AKT3 (Homo sapiens, UniProt Q9Y243)).
DDR2 (Homo sapiens, UniProt Q16832) — remaining binding: 88%.
The remaining binding was 100% (EGFR (Homo sapiens, UniProt P00533, L861Q)).
PKN2 (Homo sapiens, UniProt Q16513) — remaining binding: 100%.

Set 4 — tested at: 1 µM
Compound: C[C@H]1CC[C@H](n2c3cnccc3c3cnc(Nc4ccc5c(n4)CCN(C(=O)CO)C5)nc32)CC1
STK36 (Homo sapiens, UniProt Q9NRP7); binding, competition with immobilised ligand — remaining binding: 24%.
For EPHA3 (Homo sapiens, UniProt P29320); cell-free assay, competition with immobilised ligand: remaining binding read 77%.
EPHA2 (Homo sapiens, UniProt P29317); cell-free assay, competition with immobilised ligand — remaining binding: 86%.
CDKL3 (Homo sapiens, UniProt Q8IVW4); binding, competition with immobilised ligand — remaining binding: 100%.
CDKL5 (Homo sapiens, UniProt O76039); binding — remaining binding: 12%.
It gave 66% for remaining binding (EPHB6 (Homo sapiens, UniProt O15197); cell-free assay, competition with immobilised ligand).
For HIPK3 (Homo sapiens, UniProt Q9H422); binding, competition with immobilised ligand: remaining binding read 34%.
It gave 64% for remaining binding (FYN (Homo sapiens, UniProt P06241); binding, competition with immobilised ligand).

Repeated from above (set 2):
PAK1 (Homo sapiens, UniProt Q13153) — remaining activity: 93.4%.
For CSNK1D (Homo sapiens, UniProt P48730): remaining activity read 98.5%.
For CLK1 (Homo sapiens, UniProt P49759): remaining activity read 103%.
The remaining activity was 123% (IGF1R (Homo sapiens, UniProt P08069)).
RPS6KA3 (Homo sapiens, UniProt P51812) — remaining activity: 105%.
It gave 97.1% for remaining activity (CSNK1E (Homo sapiens, UniProt P49674)).
It gave 110% for remaining activity (TYRO3 (Homo sapiens, UniProt Q06418)).
For PAK6 (Homo sapiens, UniProt Q9NQU5): remaining activity read 94.9%.
